{"data": "Measured values from different studies", "note": "Each numbered part is a random draw from the data of one study; scales do not carry over between parts.", "sequence of UniProt P42336 (whole entry, unmodified, looked up)": "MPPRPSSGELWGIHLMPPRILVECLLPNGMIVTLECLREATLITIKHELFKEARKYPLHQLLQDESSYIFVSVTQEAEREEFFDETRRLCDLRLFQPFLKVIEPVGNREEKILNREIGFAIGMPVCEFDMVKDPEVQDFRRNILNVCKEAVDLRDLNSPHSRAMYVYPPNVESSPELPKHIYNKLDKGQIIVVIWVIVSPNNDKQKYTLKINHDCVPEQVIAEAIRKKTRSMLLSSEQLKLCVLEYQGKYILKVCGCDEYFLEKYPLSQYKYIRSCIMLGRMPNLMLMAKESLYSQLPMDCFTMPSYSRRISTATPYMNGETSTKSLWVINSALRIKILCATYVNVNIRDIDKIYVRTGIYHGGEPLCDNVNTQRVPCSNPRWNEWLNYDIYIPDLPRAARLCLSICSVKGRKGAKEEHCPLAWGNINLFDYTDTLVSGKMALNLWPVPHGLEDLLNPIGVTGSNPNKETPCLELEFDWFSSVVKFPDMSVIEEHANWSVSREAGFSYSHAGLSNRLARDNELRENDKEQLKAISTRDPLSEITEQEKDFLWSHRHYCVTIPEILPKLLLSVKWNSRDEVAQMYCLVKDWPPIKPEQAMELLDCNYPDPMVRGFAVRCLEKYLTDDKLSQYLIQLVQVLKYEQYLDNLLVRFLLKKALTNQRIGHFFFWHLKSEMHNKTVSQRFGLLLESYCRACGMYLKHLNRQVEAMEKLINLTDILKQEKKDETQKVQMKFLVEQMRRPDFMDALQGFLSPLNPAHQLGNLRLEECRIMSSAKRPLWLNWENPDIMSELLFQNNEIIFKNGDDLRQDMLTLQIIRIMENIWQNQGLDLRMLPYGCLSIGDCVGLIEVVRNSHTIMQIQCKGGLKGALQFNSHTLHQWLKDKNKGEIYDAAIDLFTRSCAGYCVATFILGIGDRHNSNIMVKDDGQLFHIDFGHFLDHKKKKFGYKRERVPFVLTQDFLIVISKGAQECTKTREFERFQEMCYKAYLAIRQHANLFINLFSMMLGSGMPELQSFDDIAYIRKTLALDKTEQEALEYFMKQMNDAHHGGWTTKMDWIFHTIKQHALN", "sequence of UniProt Q9NRP7 (whole entry, looked up)": "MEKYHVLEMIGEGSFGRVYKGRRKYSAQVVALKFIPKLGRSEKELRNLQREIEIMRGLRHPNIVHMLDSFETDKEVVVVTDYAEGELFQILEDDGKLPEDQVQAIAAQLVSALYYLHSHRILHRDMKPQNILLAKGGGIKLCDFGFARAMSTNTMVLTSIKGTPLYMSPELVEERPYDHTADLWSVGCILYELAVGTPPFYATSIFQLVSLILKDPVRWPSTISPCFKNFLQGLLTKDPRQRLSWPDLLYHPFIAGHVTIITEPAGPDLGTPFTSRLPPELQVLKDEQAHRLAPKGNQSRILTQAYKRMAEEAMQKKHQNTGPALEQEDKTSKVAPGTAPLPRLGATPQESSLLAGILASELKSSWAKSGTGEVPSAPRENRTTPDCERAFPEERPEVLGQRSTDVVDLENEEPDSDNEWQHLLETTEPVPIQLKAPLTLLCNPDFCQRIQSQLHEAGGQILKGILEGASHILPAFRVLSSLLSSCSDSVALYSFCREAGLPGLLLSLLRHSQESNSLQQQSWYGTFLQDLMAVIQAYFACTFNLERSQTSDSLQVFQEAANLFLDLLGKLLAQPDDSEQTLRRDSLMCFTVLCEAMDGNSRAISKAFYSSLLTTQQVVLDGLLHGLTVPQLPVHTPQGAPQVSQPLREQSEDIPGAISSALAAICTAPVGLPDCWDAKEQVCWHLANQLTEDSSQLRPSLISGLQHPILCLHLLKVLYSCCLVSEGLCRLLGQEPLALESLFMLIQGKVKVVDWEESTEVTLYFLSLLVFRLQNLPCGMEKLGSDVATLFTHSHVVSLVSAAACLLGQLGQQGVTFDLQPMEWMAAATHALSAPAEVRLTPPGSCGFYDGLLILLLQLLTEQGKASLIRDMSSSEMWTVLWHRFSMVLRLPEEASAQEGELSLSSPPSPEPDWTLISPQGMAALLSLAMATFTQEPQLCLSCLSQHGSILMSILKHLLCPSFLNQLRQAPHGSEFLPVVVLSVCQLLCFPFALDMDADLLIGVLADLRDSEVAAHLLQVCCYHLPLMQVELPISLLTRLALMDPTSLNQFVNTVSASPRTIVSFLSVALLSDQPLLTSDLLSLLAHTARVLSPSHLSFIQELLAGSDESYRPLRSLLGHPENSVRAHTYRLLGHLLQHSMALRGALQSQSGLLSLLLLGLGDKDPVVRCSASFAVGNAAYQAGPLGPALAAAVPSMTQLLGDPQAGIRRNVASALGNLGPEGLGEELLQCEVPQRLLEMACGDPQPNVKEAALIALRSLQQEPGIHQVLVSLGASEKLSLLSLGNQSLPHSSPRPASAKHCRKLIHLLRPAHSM", "sequence of UniProt Q13873 (whole entry, looked up)": "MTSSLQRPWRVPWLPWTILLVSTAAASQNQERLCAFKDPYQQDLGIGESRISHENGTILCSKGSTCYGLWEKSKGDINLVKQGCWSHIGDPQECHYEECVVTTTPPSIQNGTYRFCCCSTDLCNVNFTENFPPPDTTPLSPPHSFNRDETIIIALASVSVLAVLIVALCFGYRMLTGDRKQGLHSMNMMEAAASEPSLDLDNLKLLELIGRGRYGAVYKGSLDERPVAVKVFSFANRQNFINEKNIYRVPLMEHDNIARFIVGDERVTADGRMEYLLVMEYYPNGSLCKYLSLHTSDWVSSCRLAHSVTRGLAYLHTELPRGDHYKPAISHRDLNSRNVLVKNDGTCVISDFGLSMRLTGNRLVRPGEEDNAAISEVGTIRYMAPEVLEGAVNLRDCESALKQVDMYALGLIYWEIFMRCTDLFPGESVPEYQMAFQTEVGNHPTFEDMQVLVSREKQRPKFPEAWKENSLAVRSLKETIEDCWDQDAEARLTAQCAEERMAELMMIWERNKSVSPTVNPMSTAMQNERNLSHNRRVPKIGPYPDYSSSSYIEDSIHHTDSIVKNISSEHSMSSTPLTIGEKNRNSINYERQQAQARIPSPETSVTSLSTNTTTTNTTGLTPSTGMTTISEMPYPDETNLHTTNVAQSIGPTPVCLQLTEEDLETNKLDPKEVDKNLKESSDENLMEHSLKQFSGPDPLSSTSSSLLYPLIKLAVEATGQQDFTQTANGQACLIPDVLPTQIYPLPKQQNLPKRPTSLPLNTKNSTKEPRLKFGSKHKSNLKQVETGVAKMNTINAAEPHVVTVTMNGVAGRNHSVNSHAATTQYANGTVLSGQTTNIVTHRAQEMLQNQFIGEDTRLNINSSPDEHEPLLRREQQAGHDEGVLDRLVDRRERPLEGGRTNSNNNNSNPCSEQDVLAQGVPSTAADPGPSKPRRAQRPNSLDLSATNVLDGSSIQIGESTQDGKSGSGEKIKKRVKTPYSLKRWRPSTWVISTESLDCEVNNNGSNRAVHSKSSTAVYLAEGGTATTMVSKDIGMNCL", "sequence of UniProt P48730 (whole entry, looked up)": "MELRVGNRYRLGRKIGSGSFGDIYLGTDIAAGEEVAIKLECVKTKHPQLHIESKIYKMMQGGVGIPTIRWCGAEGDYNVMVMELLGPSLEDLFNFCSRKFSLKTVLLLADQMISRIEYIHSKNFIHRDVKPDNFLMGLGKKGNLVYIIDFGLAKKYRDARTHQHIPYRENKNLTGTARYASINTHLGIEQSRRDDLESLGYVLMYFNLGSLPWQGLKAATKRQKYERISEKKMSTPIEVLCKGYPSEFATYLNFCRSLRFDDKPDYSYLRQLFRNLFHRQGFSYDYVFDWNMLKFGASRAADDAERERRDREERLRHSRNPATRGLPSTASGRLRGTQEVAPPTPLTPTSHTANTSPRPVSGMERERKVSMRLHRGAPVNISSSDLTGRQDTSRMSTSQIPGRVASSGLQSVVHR"}
{"data": "Block 1", "Structure (SMILES)": "CC#CC(=O)N1CCC[C@H]1c1nc(-c2ccc(C(=O)Nc3ccccn3)cc2)c2c(N)nccn12", "mode": "inhibitor", "concentration": "1 µM"}
{"target": "NTRK3 (Homo sapiens, UniProt Q16288)", "effect on": "enzyme activity", "inhibition": "0%"}
{"target": "PAK2 (Homo sapiens, UniProt Q13177)", "effect on": "enzyme activity", "inhibition": "19%"}
{"target": "CDKL1 (Homo sapiens, UniProt Q00532)", "effect on": "enzyme activity", "inhibition": "7%"}
{"target": "STK36 (Homo sapiens, UniProt Q9NRP7)", "effect on": "enzyme activity", "inhibition": "0%"}
{"target": "MAPK4 (Homo sapiens, UniProt P31152)", "effect on": "enzyme activity", "inhibition": "0%"}
{"target": "CDK16 (Homo sapiens, UniProt Q00536)", "effect on": "enzyme activity", "inhibition": "1%"}
{"target": "Ribosomal protein S6 kinase alpha-4, C-terminal kinase domain (RPS6KA4, Homo sapiens, UniProt O75676)", "inhibition": "16%"}
{"target": "GRK1 (Homo sapiens, UniProt Q15835)", "effect on": "enzyme activity", "inhibition": "28%"}
{"target": "EGFR (Homo sapiens, UniProt P00533, L858R)", "effect on": "enzyme activity", "inhibition": "1%"}
{"data": "Block 2", "SMILES": "O=C1NC(c2ccccn2)Sc2ccccc21 (stereo not drawn)", "technique": "competition with immobilised ligand", "concentration": "1 µM"}
{"target": "WEE1 (Homo sapiens, UniProt P30291)", "effect on": "cell-free assay", "remaining binding": "100%"}
{"target": "PRKD3 (Homo sapiens, UniProt O94806)", "effect on": "cell-free assay", "remaining binding": "100%"}
{"target": "MAP3K19 (Homo sapiens, UniProt Q56UN5)", "effect on": "cell-free assay", "remaining binding": "92%"}
{"target": "BMPR2 (Homo sapiens, UniProt Q13873)", "effect on": "cell-free assay", "remaining binding": "80%"}
{"target": "EGFR (Homo sapiens, UniProt P00533, L858R)", "effect on": "cell-free assay", "remaining binding": "86%"}
{"target": "PIK3CA (Homo sapiens, UniProt P42336, Q546K)", "effect on": "cell-free assay", "remaining binding": "100%"}
{"target": "NEK5 (Homo sapiens, UniProt Q6P3R8)", "effect on": "cell-free assay", "remaining binding": "72%"}
{"target": "Receptor-type tyrosine-protein kinase FLT3, autoinhibited (FLT3, Homo sapiens, UniProt P36888)", "effect on": "cell-free assay", "remaining binding": "92%"}
{"target": "MELK (Homo sapiens, UniProt Q14680)", "effect on": "cell-free assay", "remaining binding": "81%"}
{"target": "MAP3K6 (Homo sapiens, UniProt O95382)", "effect on": "cell-free assay", "remaining binding": "65%"}
{"target": "SRC (Homo sapiens, UniProt P12931)", "effect on": "cell-free assay", "remaining binding": "85%"}
{"target": "EGFR (Homo sapiens, UniProt P00533, del746-750)", "effect on": "cell-free assay", "remaining binding": "100%"}
{"target": "STK16 (Homo sapiens, UniProt O75716)", "effect on": "cell-free assay", "remaining binding": "83%"}
{"target": "CDK17 (Homo sapiens, UniProt Q00537)", "effect on": "cell-free assay", "remaining binding": "100%"}
{"target": "CDC42BPB (Homo sapiens, UniProt Q9Y5S2)", "effect on": "cell-free assay", "remaining binding": "100%"}
{"target": "Tyrosine-protein kinase ABL1, non-phosphorylated (ABL1, Homo sapiens, UniProt P00519, F317L)", "effect on": "cell-free assay", "remaining binding": "100%"}
{"target": "MARK4 (Homo sapiens, UniProt Q96L34)", "effect on": "cell-free assay", "remaining binding": "100%"}
{"target": "MAP2K4 (Homo sapiens, UniProt P45985)", "effect on": "cell-free assay", "remaining binding": "93%"}
{"target": "TXK (Homo sapiens, UniProt P42681)", "effect on": "binding", "remaining binding": "100%"}
{"target": "BMPR1B (Homo sapiens, UniProt O00238)", "effect on": "cell-free assay", "remaining binding": "71%"}
{"target": "MET (Homo sapiens, UniProt P08581, M1250T)", "effect on": "cell-free assay", "remaining binding": "72%"}
{"target": "EGFR (Homo sapiens, UniProt P00533, T790M)", "effect on": "cell-free assay", "remaining binding": "96%"}
{"target": "CSNK1D (Homo sapiens, UniProt P48730)", "effect on": "cell-free assay", "remaining binding": "74%"}
{"target": "SBK1 (Homo sapiens, UniProt Q52WX2)", "effect on": "cell-free assay", "remaining binding": "100%"}
{"target": "PIK3CA (Homo sapiens, UniProt P42336, E542K)", "effect on": "cell-free assay", "remaining binding": "100%"}
{"data": "Block 3", "target": "Calcium/calmodulin-dependent protein kinase type II subunit alpha (CAMK2A, Homo sapiens, UniProt Q9UQM7)", "effect on": "enzyme activity", "mode": "inhibitor", "concentration": "10 µM", "sequence of UniProt Q9UQM7 (whole entry, looked up)": "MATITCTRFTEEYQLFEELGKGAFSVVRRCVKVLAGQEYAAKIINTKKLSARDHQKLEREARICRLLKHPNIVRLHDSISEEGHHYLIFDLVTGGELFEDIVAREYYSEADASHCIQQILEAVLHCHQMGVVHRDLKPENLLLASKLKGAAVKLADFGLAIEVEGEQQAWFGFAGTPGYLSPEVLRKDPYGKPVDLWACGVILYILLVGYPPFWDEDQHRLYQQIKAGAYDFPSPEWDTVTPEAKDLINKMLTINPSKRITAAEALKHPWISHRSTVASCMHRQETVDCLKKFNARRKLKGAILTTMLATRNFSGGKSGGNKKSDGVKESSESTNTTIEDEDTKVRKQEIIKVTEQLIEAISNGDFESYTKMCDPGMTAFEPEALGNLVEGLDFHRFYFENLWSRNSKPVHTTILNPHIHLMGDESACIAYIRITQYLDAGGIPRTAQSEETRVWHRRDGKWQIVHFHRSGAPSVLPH"}
{"SMILES": "O=C(O)COC(=O)Cc1ccccc1Nc1c(Cl)cccc1Cl", "inhibition": "-3%"}
{"SMILES": "Oc1cc(O)c2c(c1)O[C@H](c1cc(O)c(O)c(O)c1)[C@@H](O)C2", "inhibition": "-35%"}
{"SMILES": "O=c1cc(-c2ccc(O)cc2)oc2c([C@@H]3O[C@H](CO)[C@@H](O[C@@H]4O[C@H](CO)[C@@H](O)[C@H](O)[C@H]4O)[C@H](O)[C@H]3O)c(O)cc(O)c12", "inhibition": "7%"}
{"SMILES": "CSCC[C@H](NC=O)C(=O)O", "inhibition": "-42%"}
{"SMILES": "C[C@H](CC[C@@H](O[C@@H]1O[C@H](CO[C@@H]2O[C@H](CO)[C@@H](O)[C@H](O)[C@H]2O)[C@@H](O)[C@H](O)[C@H]1O[C@@H]1O[C@H](CO)[C@@H](O)[C@H](O)[C@H]1O)C(C)(C)O)[C@H]1CC[C@@]2(C)[C@@H]3CC=C4[C@@H](CC[C@H](O[C@@H]5O[C@H](CO[C@@H]6O[C@H](CO)[C@@H](O)[C@H](O)[C@H]6O)[C@@H](O)[C@H](O)[C@H]5O)C4(C)C)[C@]3(C)C(=O)C[C@]12C", "inhibition": "5%"}
{"SMILES": "CC(=O)[C@@]1(O)CC[C@H]2[C@@H]3C=C(C)C4=CC(=O)CC[C@]4(C)[C@H]3CC[C@@]21C", "inhibition": "-3%"}
{"SMILES": "O=C1N=C(O)NC1(c1ccccc1)c1ccccc1", "inhibition": "0%"}
{"SMILES": "CCc1ccc(C=O)cc1", "inhibition": "-24%"}
{"SMILES": "NC(=N\\CCCCCC/N=C(N)/N=C(\\N)Nc1ccc(Cl)cc1)/N=C(\\N)Nc1ccc(Cl)cc1", "inhibition": "5%"}
{"data": "Block 4", "cell line": "Huh-7", "concentration": "10 µM", "time": "24 h"}
{"SMILES": "C[C@]12CC[C@@H]3c4ccc(OC(=O)c5ccccc5)cc4CC[C@H]3[C@@H]1CC[C@@H]2O", "viability [%]": 93.6}
{"SMILES": "NC(=O)N/N=C/c1ccc([N+](=O)[O-])o1", "viability [%]": 95.6}
{"SMILES": "CCCc1ncc(C[n+]2ccccc2C)c(N)n1", "viability [%]": 96}
{"SMILES": "C[C@H](CCC(=O)O)[C@H]1CC[C@H]2[C@@H]3C(=O)C[C@@H]4CC(=O)CC[C@]4(C)[C@H]3CC(=O)[C@]12C", "viability [%]": 102}
{"SMILES": "CCn1cc(C(=O)O)c(=O)c2cc(F)c(N3CCNCC3)cc21", "viability [%]": 99.1}
{"SMILES": "O=C1NS(=O)(=O)c2ccccc21", "viability [%]": 94.8}
{"SMILES": "COC(=O)[C@H](Cc1ccccc1)NC(=O)[C@@H](N)CC(=O)O", "viability [%]": 102}
{"SMILES": "CCOc1ccc(NC(C)=O)cc1", "viability [%]": 104}
{"note": "A few entries again (block 3):"}
{"SMILES": "O=c1cc(-c2ccc(O)cc2)oc2c([C@@H]3O[C@H](CO)[C@@H](O[C@@H]4O[C@H](CO)[C@@H](O)[C@H](O)[C@H]4O)[C@H](O)[C@H]3O)c(O)cc(O)c12", "inhibition": "7%"}
{"SMILES": "CSCC[C@H](NC=O)C(=O)O", "inhibition": "-42%"}
{"SMILES": "C[C@H](CC[C@@H](O[C@@H]1O[C@H](CO[C@@H]2O[C@H](CO)[C@@H](O)[C@H](O)[C@H]2O)[C@@H](O)[C@H](O)[C@H]1O[C@@H]1O[C@H](CO)[C@@H](O)[C@H](O)[C@H]1O)C(C)(C)O)[C@H]1CC[C@@]2(C)[C@@H]3CC=C4[C@@H](CC[C@H](O[C@@H]5O[C@H](CO[C@@H]6O[C@H](CO)[C@@H](O)[C@H](O)[C@H]6O)[C@@H](O)[C@H](O)[C@H]5O)C4(C)C)[C@]3(C)C(=O)C[C@]12C", "inhibition": "5%"}
{"SMILES": "CC(=O)[C@@]1(O)CC[C@H]2[C@@H]3C=C(C)C4=CC(=O)CC[C@]4(C)[C@H]3CC[C@@]21C", "inhibition": "-3%"}
{"SMILES": "O=C1N=C(O)NC1(c1ccccc1)c1ccccc1", "inhibition": "0%"}
